Measured values pooled from the literature.
Each line is one published result; not all experiments were run side by side. ± marks the error that the study gave.

`NCCC(=O)N1Cc2ccccc2-c2c(nnn2-c2nc(N)c3ncn(C4OC(CO)C(O)C4O)c3n2)-c2ccccc21` (mixture of isomers) gave a fraction absorbed of 22% (HDM-PAMPA; 75 µM, 16 h, ambient).
`CC(C)(Sc1cc[n+]([O-])cc1-c1ccc(C#N)c2ccccc12)C(=O)OC1OC(C(=O)O)C(O)C(O)C1O` (centres unmarked) — result for “fraction excreted unchanged”: 15% (urine; oral, 15 mg, 72 h, moderate renal impairment; relative to: dose).
For `COC1C=COC2(C)Oc3c(C)c(O)c4c(c3C2=O)C2=NC3(CCN(CC(C)C)CC3)NC2=C(NC(=O)C(C)=CC=CC(C)C(O)C(C)C(O)C(C)C(OC(=O)c2cccnc2)C1C)C4=O` (centres unmarked), the fraction unbound was 0.021 (rapid equilibrium dialysis; mouse plasma).
With `O=C(Cc1ccccc1)Nc1nc2ccccc2n1Cc1ccccc1` the fraction unbound was 34% (human liver microsomes; 0.5 µM, 1 mg/mL protein).
The fraction unbound of `COC1C=COC2(C)Oc3c(C)c(O)c4c(c3C2=O)C2=NC3(CCN(CC(C)C)CC3)NC2=C(NC(=O)C(C)=CC=CC(C)C(O)C(C)C(O)C(C)C(OC(=O)Nc2cccnn2)C1C)C4=O` (centres unmarked) is reported as 0.068 (rapid equilibrium dialysis; mouse plasma).
The fraction unbound of `NC(=O)c1c(F)ccc(OCc2nc3cc(Cl)cnc3s2)c1F` is reported as 0.15 ± 0.06 (equilibrium dialysis; mouse plasma; 10 µM).
`COC(=O)c1ccc(/C=N/NS(=O)(=O)c2ccc(OC)c(OC)c2)cc1` gave a fraction absorbed of 100% (PAMPA-GIT; 500 µM, 8 h).
Under “fraction excreted unchanged”, `CC(C)(Sc1ccncc1-c1ccc(C#N)c2ccccc12)C(=O)OC1OC(C(=O)O)C(O)C(O)C1O` (centres unmarked) is recorded as 11.7% (urine; oral, 15 mg, 72 h, normal renal function; relative to: dose).
Under “fraction in filtrate”, `Polymyxin B` is recorded as 1% (ultrafiltration ELISA; human citrate plasma; 1 µg/mL, 10 kDa MMCO filter; relative to: positive control).
The fraction unbound of `CCCCc1oc2ccccc2c1C(=O)c1cc(I)c(OCCNCC)c(I)c1` is reported as 0.02 ± 0.004 (ultracentrifugation; human plasma; 2 h).
`Nc1ncnc2c1nc(-n1nnc3c1CCC1C(CO)C1CC3)n2C1CC(O)C(CO)O1` (mixture of isomers) gave a fraction absorbed of 21% (HDM-PAMPA; 75 µM, 16 h, ambient).

Repeated from above:
For `COC1C=COC2(C)Oc3c(C)c(O)c4c(c3C2=O)C2=NC3(CCN(CC(C)C)CC3)NC2=C(NC(=O)C(C)=CC=CC(C)C(O)C(C)C(O)C(C)C(OC(=O)c2cccnc2)C1C)C4=O` (centres unmarked), the fraction unbound was 0.021 (rapid equilibrium dialysis; mouse plasma).
